Assay results pooled from the literature.
Protocols differ between the studies behind these lines.
ACHE: Acetylcholinesterase (ACHE, Homo sapiens, UniProt P22303)
Chain of UniProt P22303 (whole entry, looked up): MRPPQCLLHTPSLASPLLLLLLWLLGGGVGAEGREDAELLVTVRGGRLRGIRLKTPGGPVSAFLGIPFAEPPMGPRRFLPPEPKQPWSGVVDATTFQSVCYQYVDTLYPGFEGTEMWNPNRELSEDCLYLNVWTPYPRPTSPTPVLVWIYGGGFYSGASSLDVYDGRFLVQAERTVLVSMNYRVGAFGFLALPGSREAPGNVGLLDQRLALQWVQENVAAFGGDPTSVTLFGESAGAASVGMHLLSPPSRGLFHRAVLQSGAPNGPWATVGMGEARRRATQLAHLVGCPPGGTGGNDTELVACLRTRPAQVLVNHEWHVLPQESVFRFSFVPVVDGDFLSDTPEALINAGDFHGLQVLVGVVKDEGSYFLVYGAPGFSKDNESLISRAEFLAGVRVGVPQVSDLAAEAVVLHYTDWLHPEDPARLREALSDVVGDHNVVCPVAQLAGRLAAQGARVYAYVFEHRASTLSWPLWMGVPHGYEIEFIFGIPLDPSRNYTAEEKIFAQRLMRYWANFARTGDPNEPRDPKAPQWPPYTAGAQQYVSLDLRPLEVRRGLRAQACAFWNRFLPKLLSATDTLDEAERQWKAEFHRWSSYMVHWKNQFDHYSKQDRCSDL
BCHE: Cholinesterase (BCHE, Homo sapiens, UniProt P06276)
Chain of UniProt P06276 (whole entry, looked up): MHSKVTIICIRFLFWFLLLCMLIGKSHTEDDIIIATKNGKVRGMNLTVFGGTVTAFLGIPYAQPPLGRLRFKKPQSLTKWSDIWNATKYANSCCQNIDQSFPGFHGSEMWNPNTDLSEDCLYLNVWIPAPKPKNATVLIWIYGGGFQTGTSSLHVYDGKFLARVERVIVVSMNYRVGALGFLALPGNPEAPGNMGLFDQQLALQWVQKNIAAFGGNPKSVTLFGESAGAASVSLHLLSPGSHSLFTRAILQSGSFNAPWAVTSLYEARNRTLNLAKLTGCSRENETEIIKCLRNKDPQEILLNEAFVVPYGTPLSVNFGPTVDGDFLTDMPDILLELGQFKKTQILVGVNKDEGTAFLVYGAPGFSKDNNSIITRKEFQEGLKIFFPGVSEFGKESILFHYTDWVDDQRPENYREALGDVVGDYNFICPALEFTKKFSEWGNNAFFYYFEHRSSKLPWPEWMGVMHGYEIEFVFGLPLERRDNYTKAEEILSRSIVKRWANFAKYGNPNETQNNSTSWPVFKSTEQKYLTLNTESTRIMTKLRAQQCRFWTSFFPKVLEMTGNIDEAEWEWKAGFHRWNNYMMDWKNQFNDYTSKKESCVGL
PFF0160c: Dihydroorotate dehydrogenase (quinone), mitochondrial (PFF0160c, Plasmodium falciparum, UniProt Q08210)
Chain of UniProt Q08210 (whole entry, looked up): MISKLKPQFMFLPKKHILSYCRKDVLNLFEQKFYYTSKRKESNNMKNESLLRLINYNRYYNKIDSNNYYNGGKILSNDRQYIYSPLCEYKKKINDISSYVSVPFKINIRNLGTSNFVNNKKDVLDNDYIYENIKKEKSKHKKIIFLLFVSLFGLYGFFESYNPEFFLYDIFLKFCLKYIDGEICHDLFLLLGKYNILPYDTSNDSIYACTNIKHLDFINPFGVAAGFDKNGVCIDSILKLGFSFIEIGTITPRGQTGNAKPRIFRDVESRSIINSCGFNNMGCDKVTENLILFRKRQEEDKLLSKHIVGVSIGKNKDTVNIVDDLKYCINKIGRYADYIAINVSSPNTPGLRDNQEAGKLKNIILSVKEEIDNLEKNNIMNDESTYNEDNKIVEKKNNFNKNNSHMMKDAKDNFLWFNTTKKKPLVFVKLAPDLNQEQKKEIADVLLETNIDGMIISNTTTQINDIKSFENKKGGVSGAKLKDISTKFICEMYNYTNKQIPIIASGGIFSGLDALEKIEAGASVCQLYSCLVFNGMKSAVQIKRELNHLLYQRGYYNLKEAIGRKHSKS
Chain of UniProt P35354 (whole entry, looked up): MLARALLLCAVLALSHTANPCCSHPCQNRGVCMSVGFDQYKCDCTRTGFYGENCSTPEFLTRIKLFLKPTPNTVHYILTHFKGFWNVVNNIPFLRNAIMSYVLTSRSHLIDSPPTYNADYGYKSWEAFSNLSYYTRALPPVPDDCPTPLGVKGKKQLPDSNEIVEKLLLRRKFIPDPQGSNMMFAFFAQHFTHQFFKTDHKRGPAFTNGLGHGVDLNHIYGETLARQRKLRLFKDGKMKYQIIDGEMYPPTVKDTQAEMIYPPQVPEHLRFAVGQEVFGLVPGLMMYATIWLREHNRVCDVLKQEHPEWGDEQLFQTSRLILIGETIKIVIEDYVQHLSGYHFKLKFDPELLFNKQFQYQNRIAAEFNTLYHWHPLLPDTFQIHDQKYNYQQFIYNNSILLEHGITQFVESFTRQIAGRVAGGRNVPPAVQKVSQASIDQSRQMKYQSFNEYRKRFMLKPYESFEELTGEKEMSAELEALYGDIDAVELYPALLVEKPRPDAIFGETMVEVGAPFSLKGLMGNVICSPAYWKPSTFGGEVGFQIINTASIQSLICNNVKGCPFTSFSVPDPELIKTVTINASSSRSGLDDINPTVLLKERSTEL
Chain of UniProt P43088 (whole entry, looked up): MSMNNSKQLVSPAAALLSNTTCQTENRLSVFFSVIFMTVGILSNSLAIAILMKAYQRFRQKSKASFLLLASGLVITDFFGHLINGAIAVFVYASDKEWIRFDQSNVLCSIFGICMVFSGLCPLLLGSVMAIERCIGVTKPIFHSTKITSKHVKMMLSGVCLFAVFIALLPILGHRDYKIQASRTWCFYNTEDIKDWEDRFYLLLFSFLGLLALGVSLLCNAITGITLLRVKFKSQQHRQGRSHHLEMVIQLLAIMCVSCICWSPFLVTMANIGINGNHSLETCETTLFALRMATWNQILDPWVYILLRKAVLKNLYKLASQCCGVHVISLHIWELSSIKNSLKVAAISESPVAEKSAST
Chain of UniProt Q91WC9 (whole entry, looked up): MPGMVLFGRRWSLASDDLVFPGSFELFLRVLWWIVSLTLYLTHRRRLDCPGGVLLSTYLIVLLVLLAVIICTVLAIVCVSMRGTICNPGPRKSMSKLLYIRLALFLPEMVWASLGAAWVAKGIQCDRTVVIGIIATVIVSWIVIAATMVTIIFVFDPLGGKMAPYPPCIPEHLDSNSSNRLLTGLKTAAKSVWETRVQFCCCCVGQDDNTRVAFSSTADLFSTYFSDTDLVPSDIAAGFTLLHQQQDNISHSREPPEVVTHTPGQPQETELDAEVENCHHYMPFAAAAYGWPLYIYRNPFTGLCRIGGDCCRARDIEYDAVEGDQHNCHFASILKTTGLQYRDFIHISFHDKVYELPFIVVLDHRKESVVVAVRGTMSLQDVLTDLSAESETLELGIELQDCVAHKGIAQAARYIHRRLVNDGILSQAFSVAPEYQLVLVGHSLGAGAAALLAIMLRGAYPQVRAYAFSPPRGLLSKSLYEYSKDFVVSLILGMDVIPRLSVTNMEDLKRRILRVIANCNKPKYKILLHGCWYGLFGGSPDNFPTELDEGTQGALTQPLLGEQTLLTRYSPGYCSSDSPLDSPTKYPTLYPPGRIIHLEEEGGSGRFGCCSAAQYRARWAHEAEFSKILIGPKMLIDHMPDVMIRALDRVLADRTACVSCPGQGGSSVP
Chain of UniProt O14730 (whole entry, looked up): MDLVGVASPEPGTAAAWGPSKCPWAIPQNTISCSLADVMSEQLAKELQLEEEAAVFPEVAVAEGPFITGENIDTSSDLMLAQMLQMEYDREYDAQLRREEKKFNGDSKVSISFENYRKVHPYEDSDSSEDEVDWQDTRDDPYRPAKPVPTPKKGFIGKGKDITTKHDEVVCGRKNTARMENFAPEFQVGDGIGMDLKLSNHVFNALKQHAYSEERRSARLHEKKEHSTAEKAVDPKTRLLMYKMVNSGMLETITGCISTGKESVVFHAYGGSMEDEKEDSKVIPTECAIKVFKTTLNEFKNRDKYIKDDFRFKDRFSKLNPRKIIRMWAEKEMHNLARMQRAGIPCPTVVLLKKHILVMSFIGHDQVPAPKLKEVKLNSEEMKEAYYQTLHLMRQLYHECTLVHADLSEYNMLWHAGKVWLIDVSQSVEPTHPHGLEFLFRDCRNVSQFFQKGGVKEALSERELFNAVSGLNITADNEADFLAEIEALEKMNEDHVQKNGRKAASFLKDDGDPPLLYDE
Chain of UniProt P08908 (whole entry, looked up): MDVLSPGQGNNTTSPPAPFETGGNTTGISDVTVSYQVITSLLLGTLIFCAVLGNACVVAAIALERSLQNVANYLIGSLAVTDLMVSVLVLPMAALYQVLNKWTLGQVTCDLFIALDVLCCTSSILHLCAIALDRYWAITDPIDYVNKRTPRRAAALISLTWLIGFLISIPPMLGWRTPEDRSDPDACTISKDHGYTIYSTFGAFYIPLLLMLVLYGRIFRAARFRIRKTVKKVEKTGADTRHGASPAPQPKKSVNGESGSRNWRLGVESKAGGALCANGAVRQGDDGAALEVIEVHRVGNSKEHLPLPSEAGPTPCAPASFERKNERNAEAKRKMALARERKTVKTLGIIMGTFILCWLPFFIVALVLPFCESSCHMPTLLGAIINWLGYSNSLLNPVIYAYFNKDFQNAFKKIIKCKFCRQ
Chain of UniProt P47898 (whole entry, looked up): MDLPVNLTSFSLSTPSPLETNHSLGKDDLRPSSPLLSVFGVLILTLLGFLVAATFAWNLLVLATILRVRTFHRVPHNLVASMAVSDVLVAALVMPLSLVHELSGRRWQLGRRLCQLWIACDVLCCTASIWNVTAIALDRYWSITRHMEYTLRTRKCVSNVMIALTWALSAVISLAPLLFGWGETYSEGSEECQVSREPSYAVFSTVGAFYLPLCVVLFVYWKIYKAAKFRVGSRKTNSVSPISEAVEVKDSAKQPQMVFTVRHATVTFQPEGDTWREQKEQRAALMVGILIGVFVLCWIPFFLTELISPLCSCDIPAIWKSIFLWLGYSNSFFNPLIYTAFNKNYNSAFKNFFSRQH

SMILES	tested on	assay	system	setting	quantity	value
C[C@H]1O[C@H](O[C@H]2[C@H](O)[C@@H](O)[C@@H](O[C@H]3[C@H](O)[C@@H](O)C(O)O[C@@H]3CO)O[C@@H]2CO)[C@H](O)[C@@H](O)[C@@H]1N[C@H]1C=C(CO)[C@@H](O)[C@H](O)[C@H]1O (stereo partly shown)	Alpha-glucosidase MAL12 (MAL12, Saccharomyces cerevisiae S288c, UniProt P53341)	enzyme activity, inhibitor, absorbance	–	40 µg/mL	inhibition	36.4%
COc1cc(/C=C/C(=O)O)ccc1OCc1cn(CC(=O)Nc2ccccc2)nn1	ACHE	enzyme activity, inhibitor, Ellman	–	40 µM	inhibition	6.43%
c1cncc([C@@H]2CCCN2)c1	5-hydroxytryptamine receptor 1A (HTR1A, Homo sapiens, UniProt P08908)	ligand displacement	–	50 µM	inhibition	-1.57%
Nc1ccncc1	Potassium voltage-gated channel subfamily A member 1 (KCNA1, Homo sapiens, UniProt Q09470)	ion current, inhibitor, patch clamp	–	30 µM	inhibition	86%
COc1cc(/C=C/C(=O)O)ccc1OCc1cn(CC(=O)Nc2ccc([N+](=O)[O-])cc2C)nn1	BCHE	enzyme activity, inhibitor, Ellman	–	40 µM	inhibition	32.2%
CCc1ccc(N2C(=O)/C(=C3/C(=O)N(C)c4ccc(Cl)cc43)NC2=S)cc1	ACHE	enzyme activity, inhibitor, Ellman	–	1 µM	inhibition	70%
COc1cc(/C=C/C(=O)O)ccc1OCc1cn(CC(=O)Nc2cccc(Cl)c2)nn1	ACHE	enzyme activity, inhibitor, Ellman	–	40 µM	inhibition	25.5%
O=C(Nc1cccnn1)N1CCN([C@@H]2CCOc3cc(C(F)(F)F)ccc32)CC1	Prostaglandin F2-alpha receptor (PTGFR, Homo sapiens, UniProt P43088)	cell-free assay	–	20 µM	inhibition	-4%
Nc1ncc(-c2nc(N3CCOCC3)nc(N3CCOCC3)n2)c(C(F)F)n1	Ephrin type-B receptor 6 (EPHB6, Homo sapiens, UniProt O15197)	cell-free assay, competition with immobilised ligand	–	10 µM	remaining binding	50%
Cc1nn(C)cc1-c1nc2c(N3CCN(Cc4ccc(Cl)cc4)CC3)c(Cl)cnc2[nH]1	Serine/threonine-protein kinase RIO3 (RIOK3, Homo sapiens, UniProt O14730)	binding, competition with immobilised ligand	–	1 µM	remaining binding	2.8%
CN1C(=O)/C(=N\Nc2ncc(-c3cc4ccccc4oc3=O)s2)c2cc(Cl)ccc21	ACHE	enzyme activity, inhibitor, Ellman	–	0.1 µM	inhibition	52%
CN1CCC[C@H]1c1cccnc1	5-hydroxytryptamine receptor 5A (HTR5A, Homo sapiens, UniProt P47898)	ligand displacement	–	50 µM	inhibition	22.8%
Cn1cc(-c2ccc(-n3ccc(OCc4ccc(Cl)cn4)cc3=O)cn2)cn1	PFF0160c	enzyme activity, inhibitor, absorbance	–	–	IC50	13.4 µM
CC(C)CC(=O)OC[C@H]1O[C@@](C#N)(c2ccc3c(N)ncnn23)[C@H](O)[C@@H]1O	Prostaglandin G/H synthase 2 (PTGS2, Homo sapiens, UniProt P35354)	enzyme activity, inhibitor	–	20 µM	inhibition	14%
COc1cc(/C=C/C(=O)O)ccc1OCc1cn(CC(=O)Nc2ccc([N+](=O)[O-])cc2)nn1	ACHE	enzyme activity, inhibitor, Ellman	–	40 µM	inhibition	37.6%
C#Cc1n[nH]c2c(-c3cn(C(C)c4ccccn4)c(=O)[nH]c3=O)cc(F)cc12 (stereo not shown)	Phosphatidylinositol 3-kinase catalytic subunit type 3 (PIK3C3, Homo sapiens, UniProt Q8NEB9)	enzyme activity, inhibitor	–	1 µM	inhibition	3.8%
COc1cc(/C=C/C(=O)O)ccc1OCc1cn(CC(=O)Nc2ccc(F)cc2)nn1	BCHE	enzyme activity, inhibitor, Ellman	–	40 µM	inhibition	39.4%
COc1ccccc1N1CCN(Cc2c(NC(C)=O)sc(C)c2C)CC1	PFF0160c	enzyme activity, inhibitor, absorbance	–	–	IC50	0.351 µM
CN1C(=S)N(c2ccccc2)C(=O)/C1=C1/C(=O)N(C)c2ccc(Cl)cc21	ACHE	enzyme activity, inhibitor, Ellman	–	1 µM	inhibition	42%
COc1cc(/C=C/C(=O)O)ccc1OCc1cn(CC(=O)Nc2cccc(C)c2)nn1	BCHE	enzyme activity, inhibitor, Ellman	–	40 µM	inhibition	18.5%
CC[C@H](C)[C@H](NC(=O)[C@@H](NC(=O)[C@H](N)Cc1ccccc1)C(C)C)C(=O)N[C@@H](C)C(N)=O	Amyloid-beta precursor protein (APP, Homo sapiens, UniProt P05067)	amyloid aggregation, inhibitor, fluorescence	–	10 µM, 24 h	inhibition	100%
COC(=O)c1cc(-c2cccc(NC(=O)Nc3ccc(F)cc3)c2)on1	Klebsiella pneumoniae	microbial growth, broth dilution	BAA1705	–	MIC	> 64 µg/mL
[2H]c1c([2H])c([C@]2([2H])CCCN2C(=O)C(C)(C)Oc2ccc3cn[nH]c3c2)c([2H])c([2H])c1C([2H])([2H])[2H]	Serine/threonine-protein kinase DCLK2 (DCLK2, Homo sapiens, UniProt Q8N568)	binding, competition with immobilised ligand	–	1 µM	remaining binding	86%
CC(C)C[C@H]1C(=O)N2CCC[C@H]2[C@]2(O)O[C@](NC(=O)[C@@H]3C=C4c5cccc6[nH]c(Br)c(c56)C[C@H]4[N+](C)(C)C3)(C(C)C)C(=O)N12	Delta-type opioid receptor (OPRD1, Homo sapiens, UniProt P41143)	ligand displacement, radioligand	–	10 µM	inhibition	59.5%
CC(C)(C)OC(=O)N1CCN(C(=O)n2cc(-c3ccc(OC(F)(F)F)cc3)nn2)C(Cc2ccccc2)C1 (stereo not shown)	Diacylglycerol lipase-beta (Mus musculus, UniProt Q91WC9)	enzyme activity, inhibitor	–	10 nM	inhibition	55%

Excerpt of the above:
SMILES	tested on	assay	system	setting	quantity	value
Nc1ccncc1	Potassium voltage-gated channel subfamily A member 1 (KCNA1, Homo sapiens, UniProt Q09470)	ion current, inhibitor, patch clamp	–	30 µM	inhibition	86%
COc1cc(/C=C/C(=O)O)ccc1OCc1cn(CC(=O)Nc2ccc([N+](=O)[O-])cc2C)nn1	BCHE	enzyme activity, inhibitor, Ellman	–	40 µM	inhibition	32.2%
